{"data": "Published values from different studies", "note": "Compare with care: the assays were run in different laboratories. ± marks the error that the study gave."}
{"Compound": "CN(CCOc1ccc(CC2SC(=O)NC2=O)cc1)c1ccccn1 (stereo not shown)", "test system": "human, both sexes, plasma", "setting": "oral, 4 mg alone, 24 h, day 1, geometric mean", "AUC(0-t) [µg·h/mL]": 1440}
{"Compound": "Cc1[nH]c(/C=C2\\C(=O)Nc3ccccc32)c(C)c1CCC(=O)O", "test system": "human patients", "setting": "oral, 500 mg/m^2 twice daily, after meal, dose 55", "AUC(0-t) [µg·h/mL]": "34.1 ± 12.4"}
{"Compound": "O=C(O)CNC(=O)c1c(O)c2ccccc2n(OCC2CC2)c1=O", "test": "LC-MS/MS", "test system": "human, blood", "setting": "oral, 150 mg multiple doses", "AUC(0-t) [µg·h/mL]": "28.8 ± 13.5"}
{"Compound": "Cc1cc(-c2nnc(N)nc2-c2ccc(F)cc2)cc(Cl)n1", "test system": "human patients, plasma", "setting": "oral, 75 mg nanosuspension, single dose, arithmetic mean", "AUC(0-t) [µg·h/mL]": 4.06}
{"Compound": "C=CC(=O)N1CCC([C@@H]2CCNc3c(C(N)=O)c(-c4ccc(Oc5ccccc5)cc4)nn32)CC1", "test system": "human", "setting": "oral, 480 mg, single dose, mean", "AUC(0-t) [µg·h/mL]": 2.77}
{"Compound": "C=C(C)[C@@H]1CC[C@]2(NCCN3CCS(=O)(=O)CC3)CC[C@]3(C)[C@H](CC[C@@H]4[C@@]5(C)CC=C(C6=CC[C@@](CF)(C(=O)O)CC6)C(C)(C)[C@@H]5CC[C@]43C)[C@@H]12", "test system": "healthy human volunteers", "setting": "oral, 200 mg, tablet, moderate-fat meal, arithmetic mean", "AUC(0-t) [µg·h/mL]": 36.1}
{"Compound": "CNc1nc(Nc2ccc(-n3cnc(C)n3)c(OC)c2)nc2c1CC[C@H]2c1ccc(F)cc1", "test system": "human", "setting": "oral, 50 mg once daily, day 28, multiple ascending dose", "AUC(0-t) [µg·h/mL]": 4.77}
{"Compound": "Cc1ccc(NC(=O)c2ccc(CN3CCN(C)CC3)cc2)cc1Nc1nccc(-c2cncc(-c3oncc3C)c2)n1", "test system": "older healthy human adults, plasma", "setting": "oral, 250 mg single dose, fed, mean", "AUC(0-t) [µg·h/mL]": 213}
{"Compound": "CCCc1nn(C)c2c(=O)[nH]c(-c3cc(S(=O)(=O)N4CCN(C)CC4)ccc3OCC)nc12", "test system": "human, male, plasma", "setting": "oral, 50 mg, day 1", "AUC(0-t) [µg·h/mL]": 0.526}
{"Compound": "O=S(=O)(c1cccc2cnccc12)N1CCCNCC1", "test system": "human, plasma", "setting": "intravenous, 30 mg", "AUC(0-t) [µg·h/mL]": 0.0556}
{"Compound": "CC(C)NC[C@@H](C(=O)N1CCN(c2ncnc3c2[C@H](C)C[C@H]3O)CC1)c1ccc(Cl)cc1", "test system": "human, hepatic impairment Mild (Child-Pugh), plasma", "setting": "oral, 100 mg single, geometric mean", "AUC(0-t) [µg·h/mL]": 0.284}
{"Compound": "NS(=O)(=O)OC[C@@H]1C[C@@H](n2ccc3c(N[C@H]4CCc5ccccc54)ncnc32)C[C@@H]1O", "test system": "human", "setting": "iv, 8 mg/m^2, day 8, geometric LS mean, with: fluconazole", "AUC(0-t) [µg·h/mL]": 0.491}
{"Compound": "CN(Cc1nc2c(N)nc(N)nc2[nH]c1=O)c1ccc(C(=O)N[C@@H](CCC(=O)O)C(=O)O)cc1", "test system": "human, plasma", "setting": "oral, 15 mg methotrexate, day 1, alone, arithmetic mean", "AUC(0-t) [µg·h/mL]": 1.33}
{"Compound": "C=CC(=O)Nc1cc(Nc2ncc(C(=O)OC(C)C)c(-c3cn(C)c4ccccc34)n2)c(OC)cc1N(C)CCN(C)C", "test system": "human, fasted", "setting": "oral, 20 mg single dose, geometric mean", "AUC(0-t) [µg·h/mL]": 0.059}
{"Compound": "CN(C)Cc1c(C(=O)NCCOc2ccc(C(=O)NO)cc2)oc2ccccc12", "test system": "human, plasma", "setting": "oral, 60 mg single dose", "AUC(0-t) [µg·h/mL]": "0.225 ± 0.0472"}
{"Compound": "C/C(=C\\c1csc(C)n1)[C@@H]1C[C@@H]2O[C@]2(C)CCC[C@H](C)[C@H](O)[C@@H](C)C(=O)C(C)(C)[C@@H](O)CC(=O)N1", "test": "LC-MS/MS", "test system": "human, plasma", "setting": "intravenous infusion, 70 mg, 3 h infusion", "AUC(0-t) [µg·h/mL]": 2.25}
{"Compound": "CCCOc1ccc(S(=O)(=O)NCCC2CCCN2C)cc1-c1nc2c(CCC)nn(C)c2c(=O)[nH]1 (stereo not shown)", "test system": "healthy male humans, plasma", "setting": "oral, 200 mg, with: dapoxetine 60 mg", "AUC(0-t) [µg·h/mL]": "4.38 ± 1.18"}
{"Compound": "CC(=O)c1c(C)c2cnc(Nc3ccc(N4CCNCC4)cn3)nc2n(C2CCCC2)c1=O", "test system": "human", "setting": "oral, 50 mg/m^2 single dose, day 1", "AUC(0-t) [µg·h/mL]": 1.33}
{"Compound": "CCS(=O)(=O)N1CC(CC#N)(n2cc(-c3ncnc4[nH]ccc34)cn2)C1", "test system": "healthy Chinese human subjects, plasma", "setting": "oral, 10 mg, single dose, mean", "AUC(0-t) [µg·h/mL]": 0.775}
{"Compound": "COc1cccc(-c2ccc(NC(=O)C3=C(C(=O)O)CCC3)c(F)c2)c1", "test system": "human, male, fasted, plasma", "setting": "oral, 10 mg, single dose, geometric mean", "AUC(0-t) [µg·h/mL]": 35.7}
{"Compound": "O=C(Nc1c(Cl)cncc1Cl)c1ccc(OC(F)F)c(OCC2CC2)c1", "test system": "human adults, ≥18 years, plasma", "setting": "topical, 0.3% cream once daily, day 15", "AUC(0-t) [µg·h/mL]": 0.0727}
{"Compound": "CN[C@@H]1COc2c(S(=O)(=O)NC(=O)Nc3c4c(cc5c3CCC5)CCC4)cnn2C1", "test system": "human", "setting": "oral, 600 mg, high-fat meal, mean", "AUC(0-t) [µg·h/mL]": 150}
{"Compound": "COc1cc2c(cc1OC)[C@H]1CC(=O)[C@H](CC(C)C)CN1CC2 (racemic)", "test system": "human CYP2D6 extensive metabolizers, plasma", "setting": "oral, 25 mg, fasted, geometric mean", "AUC(0-t) [µg·h/mL]": 0.00015}
{"Compound": "O=C(O)CC[C@H]1CC[C@@](c2cc(F)ccc2F)(S(=O)(=O)c2ccc(Cl)cc2)CC1", "test system": "human patients, plasma", "setting": "oral, 1000 mg/m^2 weekly, median, dose 1 of course 1", "AUC(0-t) [µg·h/mL]": 1860}
{"Compound": "CCCS(=O)(=O)N[C@H]1C[C@@H](N(C)c2ncnc3[nH]ccc23)C1", "test system": "humans, mild hepatic impairment", "setting": "oral, 200 mg single", "AUC(0-t) [µg·h/mL]": 7.43}
{"Compound": "NCCCS(=O)(=O)O", "test system": "human, plasma", "setting": "oral, 100 mg modified-release tablet, single dose", "AUC(0-t) [µg·h/mL]": "2.35 ± 0.747"}
{"Compound": "C[C@@H](Oc1cc(-c2cnn(C3CCNCC3)c2)cnc1N)c1c(Cl)ccc(F)c1Cl", "test system": "healthy human, plasma", "setting": "oral, 250 mg single fasted, geometric mean", "AUC(0-t) [µg·h/mL]": 2.31}
{"Compound": "CC(C)[C@@H](CS(=O)(=O)C(C)C)N1C(=O)[C@@](C)(CC(=O)O)C[C@H](c2cccc(Cl)c2)[C@H]1c1ccc(Cl)cc1", "test system": "human, plasma", "setting": "oral, 60 mg, new tablet, fed, geometric LS mean", "AUC(0-t) [µg·h/mL]": 2.33}
{"Compound": "COC(=O)C(c1ccccc1Cl)N1CCC(S)C(=CC(=O)O)C1 (stereo not shown)", "test system": "human patients, CYP3A4 wt/wt, plasma", "setting": "oral, 75 mg clopidogrel daily, day 7, median", "AUC(0-t) [µg·h/mL]": 0.00759}
{"Compound": "COc1cc2ncnc(Nc3ccc(F)c(Cl)c3)c2cc1OCCCN1CCOCC1", "test system": "human, plasma", "setting": "oral, 250 mg, with: vorinostat 300 mg", "AUC(0-t) [µg·h/mL]": "0.0034 ± 0.00105"}
{"Compound": "CNC(=O)c1c(C)oc2cc(Oc3ncnc4cc(OC)c(OC)cc34)ccc12", "test system": "human, plasma", "setting": "oral, 5 mg, fasted", "AUC(0-t) [µg·h/mL]": 4.86}
